Measurements of several laboratories.
Each line is one published result; not all experiments were run side by side. Numbers after ± are the reported error.
Organism: Mycobacterium tuberculosis

C=CCNC(=O)N1Cc2ccc(NC(=O)NC3CC3c3ccccc3)cc2C1 (stereo not drawn)  IC50 (resazurin; wild type; 168 h, nutrient-starved): 4 µM
COC(=O)C(=O)[C@H](CC(C)C)NC(=O)[C@H](CCCCN)NC(=O)[C@H](Cc1ccccc1)NC(=O)OCc1ccccc1  IC50 (bacterial growth; THP-1 macrophages, Mtb-lux; 48 h): 4.6 ± 1.2 µM
Cc1ccn2c(-c3csc(Nc4ccccn4)n3)c(C)nc2c1  IC50 (ATP level; H37Rv; anaerobic): 5 µM
Cc1ccc(C(=O)OC(C)C)c(N2CCN(Cc3ccccc3OC(F)F)CC2)n1  IC50 (resazurin; wild type; 168 h, nutrient-starved): 8 µM
COc1ccc(CC(=O)Nc2c(-c3cccs3)nc3cc(C)ccn23)cc1  IC50 (microbial growth): 16.3 µM
NC(=O)c1cc(-c2ccsc2)ccc1OCCc1cc(F)cc(F)c1  IC50 (microbial growth): 0.07 µM
Cc1c(-c2ccc(N3CCCCC3)cc2)[nH]c2cc(F)cc(F)c2c1=O  IC50 (bacterial growth; H37Rv; Wayne model, oxygen-limited): 0.4 ± 0.09 µM
Nc1c2c(nc3sc4c(c13)CCCCC4)CCCC2  IC50 (ATP level; H37Rv; anaerobic): > 10 µM
COc1ccc(CN2CCN(c3nc(C)ccc3C(=O)OC(C)C)CC2)cc1Cl  IC50 (resazurin; wild type; 168 h, nutrient-starved): 4 µM
Cc1ccccc1CN1CCC(O)(c2ccc(Cl)c(C(F)(F)F)c2)CC1  IC50 (microbial growth): 0.74 µM
Cc1c(-c2ccc(Oc3ccc(OC(F)(F)F)cc3)nc2)[nH]c2ccccc2c1=O  IC50 (bacterial growth; H37Rv; Wayne model, oxygen-limited): > 10 µM
O=C(Nc1ccc(F)c(F)c1F)NC12CC3CC(CC(C3)C1)C2  IC50 (microbial growth): 0.04 µM
Fc1cccc(CN2CCN(c3ccccc3)CC2)c1OCC1CC1  IC50 (resazurin; wild type; 168 h, nutrient-starved): 8 µM
COc1ccc2c(=O)c(C)c(-c3ccc(N4CCCCC4)cc3)[nH]c2c1  IC50 (bacterial growth; H37Rv; Wayne model, oxygen-limited): 0.6 ± 0.12 µM
Cc1cccc(-c2nc(Nc3ccncn3)c3sccc3n2)n1  IC50 (microbial growth): 11.6 µM

A few entries again:
COc1ccc2c(=O)c(C)c(-c3ccc(N4CCCCC4)cc3)[nH]c2c1  IC50 (bacterial growth; H37Rv; Wayne model, oxygen-limited): 0.6 ± 0.12 µM
Cc1c(-c2ccc(Oc3ccc(OC(F)(F)F)cc3)nc2)[nH]c2ccccc2c1=O  IC50 (bacterial growth; H37Rv; Wayne model, oxygen-limited): > 10 µM
